Measured values from different studies.
Lines come from different studies, so protocols differ. Values joined by “and” are separate records of one study, mostly repeats; a detail may differ.
Target: Death-associated protein kinase 3 (DAPK3, Homo sapiens, UniProt O43293)

CN1CC[C@@H](COc2cnc(C#N)cc2-c2ccn3nc(NC(=O)C4CC4)cc3c2)C1
inhibition (enzyme activity, inhibitor; 1 µM): 1%

COc1c(Cl)cccc1Nc1c(-c2ccncc2C#C[C@@]2(C)CCCN2C(=O)/C=C/CN(C)C)[nH]c2c1C(=O)NCC2
remaining binding (binding, competition with immobilised ligand; 3 µM): 100%

Nc1ncc2c(n1)-c1c([nH]c3ccc(C4=CCOCC4)cc13)CCC2
remaining binding (binding, competition with immobilised ligand; 1 µM): 100%

CN1CCN(Cc2ccc(-c3ccc(CO[C@H]4CCC[C@@H]4NC(=O)c4cc(-c5cnn(C)c5)cnc4N)cc3)cc2)CC1
inhibition (enzyme activity, inhibitor; 0.1 µM): 1%

NC(=O)[C@@H](O)C[C@H]1CCc2sc3ncnc(O[C@H]4CC[C@H](N5CCOCC5)CC4)c3c21
inhibition (enzyme activity, inhibitor; 10 µM): -5%

CCN1CCN(Cc2ccc(C(=O)Nc3ccc(C)c(NCc4cnc5[nH]ccc5c4OC)c3)cc2C(F)(F)F)CC1
remaining binding (binding, competition with immobilised ligand; 1 µM): 96%

COc1cc(Nc2nc(C)cc(-c3cnn4nc(OC)ccc34)n2)cc(C(F)(F)F)c1
remaining activity (inhibitor; 1 µM; reference: control): 100%

C=CC(=O)N1Cc2nc(-c3cc(-c4cc(Cl)cnc4Cl)c(F)cc3F)n(-c3ccncn3)c2C1
inhibition (cell-free assay, inhibitor; 1 µM): 4.5%

Cc1nc2c(F)cc(-c3nc(Nc4ccc(CNC(=O)CCCCCCC(=O)NO)cc4)ncc3F)cc2n1C(C)C
inhibition (enzyme activity, inhibitor; 1 µM): 69%

CNC(=O)C[C@H](Cc1ccc(C#N)cc1)NC(=O)c1cc(-c2ccc(CN[C@H](C)c3ccc(C)cc3)o2)ccc1Cl
activity vs control (enzyme activity, inhibitor; 1 µM): 115%

C=CC(=O)N1CCc2ccc(-n3c(=O)ccc4cnc5ccc(-c6cnn(C)c6)cc5c43)cc21
remaining binding (KINOMEscan; 1 µM; reference: DMSO control): 100%

CNC1C[S+]2CC[S+]3CC[S+](C1)[Ru-4]321([N]=C=S)[n]2c3ccc(OC)cc3c3c4c(c5cc(F)c[n+]1c5c32)C(=O)NC4=O (stereo not drawn)
remaining binding (KinomeScan; 0.1 µM; reference: untreated): 5.7%

Cc1cccc(O[C@H]2CCC[C@@H](C(C)CNCc3ccncc3)C2)c1 (relative stereo)
inhibition (enzyme activity, inhibitor; 1 µM): -2%

C=CC(=O)Nc1cccc(-c2cnc3[nH]cc(C(=O)NC(C)(C)C)c3n2)c1
inhibition (kinase activity; 0.1 µM): -1% and 0%

COCC12C(=O)NC3C4(C(OC)CC1O)C1CC5(O)C(OC)C(O)C(OC(C)=O)(C1C5OC(=O)c1ccccc1)C3(O)C(OC)C24 (stereo not drawn)
remaining activity (kinase activity, inhibitor, ProQinase kinase profiling; 25 µM; reference: control): 107% and 110%
